Results gathered from unrelated publications.
Parts stem from different laboratories: compare values within a part only. Changes are numbered by the printed parent chain.
UniProt Q5VT25, sequence (whole entry, looked up): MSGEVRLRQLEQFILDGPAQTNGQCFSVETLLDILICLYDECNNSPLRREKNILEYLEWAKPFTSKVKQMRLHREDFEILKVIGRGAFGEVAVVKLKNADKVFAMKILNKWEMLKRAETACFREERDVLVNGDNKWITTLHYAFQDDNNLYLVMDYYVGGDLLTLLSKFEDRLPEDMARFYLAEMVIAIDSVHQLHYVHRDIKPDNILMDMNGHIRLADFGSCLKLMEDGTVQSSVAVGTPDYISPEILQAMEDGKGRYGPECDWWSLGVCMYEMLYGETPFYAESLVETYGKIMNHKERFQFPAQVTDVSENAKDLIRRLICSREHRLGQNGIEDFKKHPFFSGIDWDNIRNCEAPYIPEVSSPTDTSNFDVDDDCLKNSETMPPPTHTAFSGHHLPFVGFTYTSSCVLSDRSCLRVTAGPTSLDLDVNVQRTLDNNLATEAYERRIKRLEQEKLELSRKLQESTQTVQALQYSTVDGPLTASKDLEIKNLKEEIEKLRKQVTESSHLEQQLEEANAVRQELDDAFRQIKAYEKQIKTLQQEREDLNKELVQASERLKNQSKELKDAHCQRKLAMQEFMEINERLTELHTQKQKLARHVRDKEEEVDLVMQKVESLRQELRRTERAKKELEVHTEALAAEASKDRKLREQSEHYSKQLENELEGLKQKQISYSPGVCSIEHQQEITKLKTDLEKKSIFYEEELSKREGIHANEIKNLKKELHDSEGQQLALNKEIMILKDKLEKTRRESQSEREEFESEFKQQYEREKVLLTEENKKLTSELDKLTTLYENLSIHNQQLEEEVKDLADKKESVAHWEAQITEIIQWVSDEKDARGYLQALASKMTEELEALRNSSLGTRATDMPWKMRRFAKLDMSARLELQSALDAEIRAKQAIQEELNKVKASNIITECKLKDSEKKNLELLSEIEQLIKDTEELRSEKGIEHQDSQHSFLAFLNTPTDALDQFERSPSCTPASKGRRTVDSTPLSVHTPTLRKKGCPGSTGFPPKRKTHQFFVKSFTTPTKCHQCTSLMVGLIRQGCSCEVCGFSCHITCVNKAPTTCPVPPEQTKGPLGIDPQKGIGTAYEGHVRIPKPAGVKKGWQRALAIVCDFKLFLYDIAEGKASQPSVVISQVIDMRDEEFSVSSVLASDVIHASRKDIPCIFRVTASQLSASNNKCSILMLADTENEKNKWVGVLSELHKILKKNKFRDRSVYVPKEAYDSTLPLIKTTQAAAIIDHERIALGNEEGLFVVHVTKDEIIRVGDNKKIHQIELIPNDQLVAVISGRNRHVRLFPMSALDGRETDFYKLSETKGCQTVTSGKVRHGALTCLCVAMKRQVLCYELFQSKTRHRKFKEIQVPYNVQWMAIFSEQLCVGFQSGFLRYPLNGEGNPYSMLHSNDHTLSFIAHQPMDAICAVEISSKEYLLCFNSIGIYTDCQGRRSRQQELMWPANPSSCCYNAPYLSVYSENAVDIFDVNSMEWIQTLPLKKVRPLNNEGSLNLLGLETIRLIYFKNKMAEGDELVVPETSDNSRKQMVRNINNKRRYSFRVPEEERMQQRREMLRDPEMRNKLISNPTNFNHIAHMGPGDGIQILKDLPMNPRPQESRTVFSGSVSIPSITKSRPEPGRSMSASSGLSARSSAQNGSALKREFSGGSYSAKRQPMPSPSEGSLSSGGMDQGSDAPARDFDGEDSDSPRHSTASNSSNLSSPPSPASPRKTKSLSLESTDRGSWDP

Sample 1 — technique: protein-binding microarray; form: double-stranded DNA, one strand shown; matrix: in vitro; tested at: 0.8 µM; notes: whole 60-bp probe, no competitor; direction: higher = stronger binding; all sequences stand within: … GTCTTGATTCGCTTGACGCTGCTG
Target: Centromere-binding protein 1, full length, N-terminal tag (CBF1, Saccharomyces cerevisiae, UniProt P17106, residues 1-351)
UniProt P17106, sequence (whole entry, looked up): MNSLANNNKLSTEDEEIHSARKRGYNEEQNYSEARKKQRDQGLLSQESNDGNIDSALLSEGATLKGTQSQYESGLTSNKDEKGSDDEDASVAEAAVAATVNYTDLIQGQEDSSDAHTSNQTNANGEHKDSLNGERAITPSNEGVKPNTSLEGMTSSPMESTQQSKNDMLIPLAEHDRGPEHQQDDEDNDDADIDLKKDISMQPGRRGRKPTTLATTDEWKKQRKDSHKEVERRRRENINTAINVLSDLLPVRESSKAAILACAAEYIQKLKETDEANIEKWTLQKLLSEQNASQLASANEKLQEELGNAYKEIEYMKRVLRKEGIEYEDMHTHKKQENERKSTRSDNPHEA
The fluorescence intensity of `GAACTCGCATTTGGTCACGTCCTAAAAATTGTATAG` is reported as 1430 a.u.
For `CTATTCAGCATTGGTCACGCTAAAATATACGTTTTC`, the fluorescence intensity was 806 a.u.
`CCTAACTACTATAACCCCGTCACATAGCTTCGTACA` gave a fluorescence intensity of 512 a.u.
`GAAAACAAACGGCATTCGGTCACGTACGATAACTAG` gave a fluorescence intensity of 768 a.u.
With `CTACCCGCGCTTGCGTGCATGTAACTAAGCAAATTC` the fluorescence intensity was 517 a.u.
The fluorescence intensity of `GAATAGTTGAAATAGCGCACGAAAACGAACAGATAG` is reported as 565 a.u.
The fluorescence intensity of `GAAACGTATGTTAGTCACACGATTATATCCAGGTAG` is reported as 673 a.u.
For `GAAAATTGTTCATATCAGTTGAATCAGTTGCCATAG`, the fluorescence intensity was 542 a.u.

Sample 2 — target: CCNE1, cyclin fold, Cln2 fusion (human); technique: yeast growth competition, sequencing; matrix: yeast; notes: strong parent motif; baseline: not given; direction: higher = stronger binding
Starting sequence: E2F1 docking peptide (human); PPVKRRLDLETDH; partner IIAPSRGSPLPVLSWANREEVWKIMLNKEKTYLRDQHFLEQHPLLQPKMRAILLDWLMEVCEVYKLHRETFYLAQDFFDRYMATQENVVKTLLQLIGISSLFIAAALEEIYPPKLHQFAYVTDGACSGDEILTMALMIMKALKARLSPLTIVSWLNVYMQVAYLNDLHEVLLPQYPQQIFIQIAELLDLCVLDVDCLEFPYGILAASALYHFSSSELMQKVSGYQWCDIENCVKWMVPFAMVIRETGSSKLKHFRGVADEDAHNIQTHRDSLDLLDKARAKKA
`PPVKRLLDLETDH [R6L]` — result for “normalised enrichment score”: 0.0959.
`PPVKRRLDLVTDH [E10V]`: “normalised enrichment score” 0.811.
`PPVKRNLDLETDH [R6N]` — result for “normalised enrichment score”: 0.0796.
For `PPVKRRLDLETDD [H13D]`, “normalised enrichment score” read 2.11.
`PPVKRRYDLETDH [L7Y]`: “normalised enrichment score” 0.144.
For `VPVKRRLDLETDH [P1V]`, “normalised enrichment score” read 0.98.
For `PPVKRRLDLHTDH [E10H]`, “normalised enrichment score” read 2.03.
Under “normalised enrichment score”, `PPVKRRLDLENDH [T11N]` is recorded as 1.15.

Sample 3 — technique: RNA Bind-n-Seq; form: RNA; matrix: in vitro; tested at: 200 nM; notes: whole 134-nt RNA, ends assumed; added: 150 mM KCl; baseline: input library; direction: higher = stronger binding
Target: Ras GTPase-activating protein-binding protein 1, full length (G3BP1, Homo sapiens, UniProt Q13283)
UniProt Q13283, sequence (whole entry, looked up): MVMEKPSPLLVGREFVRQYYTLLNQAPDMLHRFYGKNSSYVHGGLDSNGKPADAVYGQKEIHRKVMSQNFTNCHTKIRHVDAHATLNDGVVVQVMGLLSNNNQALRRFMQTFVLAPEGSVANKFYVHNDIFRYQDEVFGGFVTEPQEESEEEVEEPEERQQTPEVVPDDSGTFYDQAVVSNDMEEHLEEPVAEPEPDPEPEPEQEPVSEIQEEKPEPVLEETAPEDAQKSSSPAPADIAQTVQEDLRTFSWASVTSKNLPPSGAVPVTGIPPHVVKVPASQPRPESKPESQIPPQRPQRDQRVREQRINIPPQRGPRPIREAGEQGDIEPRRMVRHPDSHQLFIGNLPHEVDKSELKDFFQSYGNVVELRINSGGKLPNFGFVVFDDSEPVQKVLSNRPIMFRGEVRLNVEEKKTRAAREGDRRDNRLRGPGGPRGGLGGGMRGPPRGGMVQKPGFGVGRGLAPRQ
All sequences stand within: GGGAGUUCUACAGUCCGACGAUC … UGGAAUUCUCGGGUGUCAAGG
The log2 enrichment of `UAACUUUAGAGGAGGAUCUGAUGGAUAUGGCAGUGGACGUGGAUUUGGGGAUGGCUAUAAGGGGUAUGGAGGAGGACCUGGAGGUGGCAA` is reported as 0.574.
The log2 enrichment of `UGUGAGGUGGAUUUUGUUUAUUUUUUUAGCUCAUUUCCAGGGGUGGGAAUUUUUUUUUAAUAUGUGUCAUGAAUAAAGUUGUUUUUGAAA` is reported as -0.185.
With `CCUGUGCUACACAUCGUAUGUACCGAAUCGGCCCCCCGGGCCCCCCGGGGCCCCCCGGGGAAAGUAUUAUGUUACGCCGUUCGGAUCUGC` the log2 enrichment was -0.943.
`UCCUCAAGUCCUGUGCUACACAUCGUAUGUACCGAAUCGGGAGGAGGAGGGAAAGUAUUAUGUUACGCCGUUCGGAUCUGCACUUCCAGC` gave a log2 enrichment of -0.417.
`UGGCCCUGGUGGCAUGCGGGGAGGAAGAGGUGGCCUCAUGGAUCGUGGUGGUCCCGGUGGAAUGUUAAGAGGUGGCCGUGGUGGAGACAG` gave a log2 enrichment of 0.28.
With `CUGUGCUACACAUCGUAUGUACCGAAUCGGGGUUUUUUGGGGUUUUUUGGGUUUUUUGGGGAAAGUAUUAUGUUACGCCGUUCGGAUCUG` the log2 enrichment was -0.489.
For `CACAGACAACACGCACCCACACAGACACAGAGGGAAGGGGUUGGGAUGGGGACAGGGUGCACAGCAGGGCGGGGUAGGACCCGAGCCCCU`, the log2 enrichment was 1.86.
`CAAGUCCUGUGCUACACAUCGUAUGUACCGAAUCGGGAGGGAAAGGGAAAAAGGGAAAGUAUUAUGUUACGCCGUUCGGAUCUGCACUUC` has a log2 enrichment of 0.528.

Other studies, line by line
Nc1ccc2ncnc(NCCc3ccc(Oc4ccccc4)cc3)c2c1 has a remaining activity of 102% (Serine/threonine-protein kinase MRCK alpha (CDC42BPA, Homo sapiens, UniProt Q5VT25); enzyme activity, inhibitor; 0.5 µM; baseline: control).

Excerpt of the above (sample 2):
`PPVKRRYDLETDH [L7Y]`: “normalised enrichment score” 0.144.
For `VPVKRRLDLETDH [P1V]`, “normalised enrichment score” read 0.98.
For `PPVKRRLDLHTDH [E10H]`, “normalised enrichment score” read 2.03.
